# Published values from different studies.
# Each numbered part is a random draw from the data of one study; scales do not carry over between parts.

# Set 1
# Target: Interferon regulatory factor 5, full length, phosphomimetic (IRF5, Homo sapiens, UniProt Q13568-2, residues 1-514, S451D/S453D/S456D/S462D)
# Method: protein-binding microarray
# Molecule type: double-stranded DNA, one strand shown
# Matrix: in vitro
# Tested at: 940 nM top
# Notes: 60-bp whole probe
# With: salmon DNA 0.4 mg/ml
# Reference: random background probes
# Direction: higher = stronger binding
# Constant ends, left off below: GCCTAGCAC … GTCTTGATTCGCTTGACGCTGCTG
Strand,fitted relative affinity
TTAGATCTCAGCTTCGATTAGTGCTAG,0.0329 z-score
GACGATTTCAGTTCGGAGACGTGCTAG,0.221 z-score
GAGGGTCTCCTACTGCTGACGTGCTAG,-0.308 z-score
TGTTACATTTATATCTTTGCGTGCTAG,0.8 z-score
TTAGGTAACGGTTTCGGTTAGTGCTAG,7.13 z-score
TCACATTTCACAGTTAAACTGTGCTAG,0.589 z-score
GACGGTTCCCTTTTCCTGTCGTGCTAG,2.17 z-score
GACGATATCGGGTATCGTGACGTGCTA,0.275 z-score
GACGGACTGCTTATGCTGACGTGCTAG,-0.803 z-score
TCAATTTTCTAAATGCCACTGTGCTAG,0.116 z-score
GACGCACTGGGGACTGGGGACGTGCTA,0.0203 z-score
GACGGACTGCTTATCCTGAAGTGCTAG,-0.35 z-score
TCAAAAATCCCATTAAAACTGTGCTAG,0.22 z-score
GACGGTTTCCTTCTCCTGCCGTGCTAG,1.33 z-score
GAAGATTTCGATTACAAAAAGTGCTAG,1.78 z-score
ACTCAGCTCCTCTTCCAGGCGTGCTAG,-0.0707 z-score

# Set 2
# Target: Fragile X messenger ribonucleoprotein 1, C-terminal low-complexity region (Fmr1, Mus musculus, UniProt P35922)
# Method: RNA Bind-n-Seq
# Molecule type: RNA
# Matrix: in vitro
# Tested at: 200 nM
# Notes: whole 134-nt RNA, ends assumed
# With: 150 mM LiCl
# Reference: input library
# Direction: higher = stronger binding
# All molecules: 7-deaza-guanosine replaces G
# Constant ends, left off below: GGGAGUUCUACAGUCCGACGAUC … UGGAAUUCUCGGGUGUCAAGG
Strand,log2 enrichment
CCUGUGCUACACAUCGUAUGUACCGAAUCGGGAAAAAAGGGAAAAAAGGGGAAAAAAGGGGAAAGUAUUAUGUUACGCCGUUCGGAUCUG,0.504
UAACUUUAGAGGAGGAUCUGAUGGAUAUUGCAGUGGACGUGGAUUUGGGGAUGGCUAUAAUGGGUAUGGAGGAGGACCUGGAGGUGGCAA,0.432
UCCUGUGCUACACAUCGUAUGUACCGAAUCGGGAAAGGGUUUUUUUGGGUUUUUUUGGGAAAGUAUUAUGUUACGCCGUUCGGAUCUGCA,-1.53
UAACUUUAGAGGAGUAUCUGAUGGAUAUGGCAGUGGACGUGGAUUUGGGGAUGGCUAUAAUGGGUAUGGAGGAGGACCUGGAGGUGGCAA,0.172
UUUUUGAAUCAAUUUUUAAAACAUGCCAUUGUGUUUCAGGCUCGCGGGAUUGAUGUGCAACAAGUGUCUUUGGUUAUAAAUUAUGAUCUA,-1.37
CUCAAGUCCUGUGCUACACAUCGUAUGUACCGAAUCGGGAAGGGGAAGGAAGGAAAGUAUUAUGUUACGCCGUUCGGAUCUGCACUUCCA,-0.944
UGGCCCUGGUGGCAUGCGGGGAGGAAGAGGUGGCCUCAUGGAUCGUGGUGGUCCCGGUGGUAUGUUCAGAGGUGGCCGUGGUGGAGACAG,-0.765
GCAGGAAGUAAAAACAAGUGGAAAUGCUUCGGAUAGUGGCAGGGGUGGGGGUUGCUAAGGAAAGGGUGGGAUGGGAGUGGGUAAAGAGUU,1.29
CAAGUCCUGUGCUACACAUCGUAUGUACCGAAUCGGUUUUUUUGGUUUGGUUUGGAAAGUAUUAUGUUACGCCGUUCGGAUCUGCACUUC,-2.08
AAGUCCUGUGCUACACAUCGUAUGUACCGAAUCGGGCCCCGGCCCCGGGGCCCCGGGAAAGUAUUAUGUUACGCCGUUCGGAUCUGCACU,-2.82
GCAGGAAGUAAAAACAAAUGGAAAUGCUUCGGAUAGUGGCAGGGGUGGGGGCUGCUAAGGAAAGGGUGGGAUGGGAGUGGGUAAAGAGUU,1.72

# Set 3
# Target: Prothrombin, mature alpha-thrombin (F2, Homo sapiens, UniProt P00734)
# Method: aptamer microarray, sandwich
# Molecule type: DNA with 2'F-ANA
# Matrix: in vitro
# Tested at: 200 nM
# Notes: whole 15-mer aptamer, many near background
# With: Cy3 exosite-II aptamer, 400 nM
# Direction: higher = stronger binding
# Strand: GGTTGGTGTGGTTGG
Modification,mean fluorescence intensity
2'F-ANA at 1 2 4 5 6 7 8 9 12 14 15,52.3 a.u.
2'F-ANA at 2 3 4 6 8 9 10 11 14,153 a.u.
2'F-ANA at 1 5 6 13,58.6 a.u.
2'F-ANA at 2 6 12 13,525 a.u.
2'F-ANA at 1 2 3 4 7 8 12 13 15,392 a.u.
2'F-ANA at 3 4 6 7 8 10,290 a.u.
2'F-ANA at 1 4 5 6 7 9 11 13 14,51.3 a.u.
2'F-ANA at 1 3 4 6 9 10 11 13 14,54.4 a.u.
2'F-ANA at 1 3 4 5 12 13,83.1 a.u.
2'F-ANA at 2 4 5 7 8 9 12 14,59.1 a.u.
2'F-ANA at 1 3 5 9 13 14,87.9 a.u.
2'F-ANA at 1 2 7 9 14 15,61.7 a.u.
2'F-ANA at 1 3 4 6 13 14 15,89.6 a.u.
2'F-ANA at 2 4 5 6 7 8 9 10 14 15,132 a.u.
2'F-ANA at 1 6 9 11 13 14 15,53 a.u.
2'F-ANA at 1 4 6 9 10 15,52.6 a.u.
2'F-ANA at 4 6 8 10 12 13 14 15,57.7 a.u.
2'F-ANA at 2 4 6 9 12 13 14 15,87.9 a.u.
2'F-ANA at 2 4 6,301 a.u.
2'F-ANA at 1 6 7 8 9 10 11 13 15,60.7 a.u.
2'F-ANA at 4 5 6 10 11 12 13 14,46.8 a.u.

# Set 4
# Target: Sal-like protein 4, full length isoform A (SALL4, Homo sapiens, UniProt Q9UJQ4, residues 1-1053)
# Sequence of UniProt Q9UJQ4 (whole entry, looked up): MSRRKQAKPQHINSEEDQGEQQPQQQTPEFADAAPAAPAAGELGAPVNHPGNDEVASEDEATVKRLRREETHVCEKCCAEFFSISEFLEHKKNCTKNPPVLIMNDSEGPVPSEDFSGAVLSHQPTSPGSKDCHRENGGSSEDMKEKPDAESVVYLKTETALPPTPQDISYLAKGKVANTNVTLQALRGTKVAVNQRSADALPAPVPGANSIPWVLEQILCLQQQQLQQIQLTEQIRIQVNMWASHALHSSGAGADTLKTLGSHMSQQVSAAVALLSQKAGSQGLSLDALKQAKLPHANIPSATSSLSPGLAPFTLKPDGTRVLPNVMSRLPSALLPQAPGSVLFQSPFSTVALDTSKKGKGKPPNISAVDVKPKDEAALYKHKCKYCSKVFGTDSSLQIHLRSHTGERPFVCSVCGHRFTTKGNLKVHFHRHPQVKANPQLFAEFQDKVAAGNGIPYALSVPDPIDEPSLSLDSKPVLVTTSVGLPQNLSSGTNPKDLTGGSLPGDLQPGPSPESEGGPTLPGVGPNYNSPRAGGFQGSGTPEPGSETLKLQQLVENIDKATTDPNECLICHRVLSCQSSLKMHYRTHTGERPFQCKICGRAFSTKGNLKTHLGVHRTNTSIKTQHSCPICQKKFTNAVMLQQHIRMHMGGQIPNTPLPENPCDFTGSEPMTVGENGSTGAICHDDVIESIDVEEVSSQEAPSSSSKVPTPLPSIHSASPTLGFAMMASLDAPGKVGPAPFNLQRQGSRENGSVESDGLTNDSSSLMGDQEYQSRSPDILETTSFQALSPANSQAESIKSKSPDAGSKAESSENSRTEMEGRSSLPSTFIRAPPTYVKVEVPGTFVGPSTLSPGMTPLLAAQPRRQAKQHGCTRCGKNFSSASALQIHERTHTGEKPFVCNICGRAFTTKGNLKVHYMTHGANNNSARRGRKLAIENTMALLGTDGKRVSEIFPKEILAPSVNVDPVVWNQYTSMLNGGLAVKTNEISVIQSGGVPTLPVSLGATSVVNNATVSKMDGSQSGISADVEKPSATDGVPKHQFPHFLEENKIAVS
# Method: universal PBM
# Molecule type: double-stranded DNA, one strand shown
# Matrix: in vitro
# Tested at: 600 nM
# Notes: 8-mer, flanks averaged, mean of replicates
# Direction: higher = stronger binding
Strand,E-score
CTACACCC,-0.255
CCACGGGG,-0.402
CGCAGGCG,-0.317
CGCGCACG,-0.26
AAATTCCT,0.105
GATCAAAC,0.044
AGGAGCTC,-0.121
ATTGGTCA,0.0661
ACGGACGG,-0.347
AACCACCC,-0.316
TCACGGCA,-0.0789
AGCGCACA,-0.131
GAGGGGGA,-0.252
CTTACGCC,-0.0126
AGTTCCAC,-0.00811
GTCTACAC,-0.15
CTCCCTCC,-0.266
CACCCACA,-0.091
CGGATGCA,-0.0982
CATACATC,0.189
AGTCCGCG,-0.224
ACCTGAGC,-0.158
GCATGACC,-0.315
GCTGTAAC,-0.0474
CCGCGAAC,-0.274

# Excerpt of the above (set 3):
Modification,mean fluorescence intensity
2'F-ANA at 1 4 5 6 7 9 11 13 14,51.3 a.u.
2'F-ANA at 1 3 4 6 9 10 11 13 14,54.4 a.u.
2'F-ANA at 1 3 4 5 12 13,83.1 a.u.
2'F-ANA at 2 4 5 7 8 9 12 14,59.1 a.u.
2'F-ANA at 1 3 5 9 13 14,87.9 a.u.
2'F-ANA at 1 2 7 9 14 15,61.7 a.u.
2'F-ANA at 1 3 4 6 13 14 15,89.6 a.u.
